Assay results pooled from the literature.
Compare with care: the assays were run in different laboratories.
CTSL: Procathepsin L (CTSL, Homo sapiens, UniProt P07711)
Chain of UniProt P07711 (whole entry, looked up): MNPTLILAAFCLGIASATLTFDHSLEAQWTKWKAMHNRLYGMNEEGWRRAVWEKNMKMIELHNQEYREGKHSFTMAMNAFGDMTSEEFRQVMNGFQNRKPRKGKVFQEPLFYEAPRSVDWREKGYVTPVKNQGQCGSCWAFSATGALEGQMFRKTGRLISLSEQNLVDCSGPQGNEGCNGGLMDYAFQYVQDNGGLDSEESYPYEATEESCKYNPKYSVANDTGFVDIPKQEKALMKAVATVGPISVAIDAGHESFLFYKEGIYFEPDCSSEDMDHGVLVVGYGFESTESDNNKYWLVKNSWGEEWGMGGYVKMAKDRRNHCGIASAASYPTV
DRD3: D(3) dopamine receptor (DRD3, Homo sapiens, UniProt P35462)
Chain of UniProt P35462 (whole entry, looked up): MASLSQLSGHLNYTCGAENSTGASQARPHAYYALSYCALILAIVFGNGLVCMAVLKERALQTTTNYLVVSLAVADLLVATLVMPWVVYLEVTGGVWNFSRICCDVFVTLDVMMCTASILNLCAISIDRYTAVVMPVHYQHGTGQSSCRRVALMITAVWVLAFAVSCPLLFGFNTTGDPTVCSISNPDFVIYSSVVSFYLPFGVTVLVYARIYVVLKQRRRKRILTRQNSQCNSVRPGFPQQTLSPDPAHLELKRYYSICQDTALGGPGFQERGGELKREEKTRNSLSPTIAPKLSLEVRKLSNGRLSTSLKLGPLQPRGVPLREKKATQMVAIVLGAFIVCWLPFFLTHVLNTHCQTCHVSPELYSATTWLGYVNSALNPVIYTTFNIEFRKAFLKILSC
Chain of UniProt Q9NWZ3 (whole entry, looked up): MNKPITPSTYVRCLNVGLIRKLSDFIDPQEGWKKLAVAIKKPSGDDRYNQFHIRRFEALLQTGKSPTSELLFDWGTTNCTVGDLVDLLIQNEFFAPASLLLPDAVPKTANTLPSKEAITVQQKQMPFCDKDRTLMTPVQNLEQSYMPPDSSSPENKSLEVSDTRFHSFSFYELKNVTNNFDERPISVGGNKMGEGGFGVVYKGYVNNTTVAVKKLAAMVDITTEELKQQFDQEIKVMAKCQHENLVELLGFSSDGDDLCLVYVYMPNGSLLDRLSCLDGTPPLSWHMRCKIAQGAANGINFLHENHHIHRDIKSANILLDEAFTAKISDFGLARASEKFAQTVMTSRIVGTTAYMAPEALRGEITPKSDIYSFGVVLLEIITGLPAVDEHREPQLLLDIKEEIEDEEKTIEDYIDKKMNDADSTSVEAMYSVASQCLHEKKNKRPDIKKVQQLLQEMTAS
Chain of UniProt Q92915 (whole entry, looked up): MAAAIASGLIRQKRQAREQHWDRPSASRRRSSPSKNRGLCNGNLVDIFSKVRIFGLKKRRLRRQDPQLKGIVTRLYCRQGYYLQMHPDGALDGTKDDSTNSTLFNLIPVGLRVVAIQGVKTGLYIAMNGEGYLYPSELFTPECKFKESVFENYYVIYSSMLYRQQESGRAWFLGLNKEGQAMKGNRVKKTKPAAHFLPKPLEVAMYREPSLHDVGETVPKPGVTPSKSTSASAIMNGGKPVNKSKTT
Chain of UniProt Q13153 (whole entry, looked up): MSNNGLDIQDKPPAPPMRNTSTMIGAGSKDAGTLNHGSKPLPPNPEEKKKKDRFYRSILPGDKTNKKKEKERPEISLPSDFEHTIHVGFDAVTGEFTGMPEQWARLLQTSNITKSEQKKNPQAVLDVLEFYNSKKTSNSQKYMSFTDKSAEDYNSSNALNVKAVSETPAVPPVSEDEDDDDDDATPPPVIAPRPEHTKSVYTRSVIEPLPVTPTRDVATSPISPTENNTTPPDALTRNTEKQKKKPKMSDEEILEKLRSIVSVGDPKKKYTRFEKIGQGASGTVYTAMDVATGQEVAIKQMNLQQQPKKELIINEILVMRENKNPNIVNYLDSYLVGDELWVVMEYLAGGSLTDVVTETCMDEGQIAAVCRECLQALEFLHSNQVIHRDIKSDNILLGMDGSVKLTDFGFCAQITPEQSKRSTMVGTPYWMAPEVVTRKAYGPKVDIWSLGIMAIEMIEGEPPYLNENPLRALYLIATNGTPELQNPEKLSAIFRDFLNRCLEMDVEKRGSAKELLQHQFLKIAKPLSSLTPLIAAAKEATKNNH
Chain of UniProt P10721 (whole entry, unmodified, looked up): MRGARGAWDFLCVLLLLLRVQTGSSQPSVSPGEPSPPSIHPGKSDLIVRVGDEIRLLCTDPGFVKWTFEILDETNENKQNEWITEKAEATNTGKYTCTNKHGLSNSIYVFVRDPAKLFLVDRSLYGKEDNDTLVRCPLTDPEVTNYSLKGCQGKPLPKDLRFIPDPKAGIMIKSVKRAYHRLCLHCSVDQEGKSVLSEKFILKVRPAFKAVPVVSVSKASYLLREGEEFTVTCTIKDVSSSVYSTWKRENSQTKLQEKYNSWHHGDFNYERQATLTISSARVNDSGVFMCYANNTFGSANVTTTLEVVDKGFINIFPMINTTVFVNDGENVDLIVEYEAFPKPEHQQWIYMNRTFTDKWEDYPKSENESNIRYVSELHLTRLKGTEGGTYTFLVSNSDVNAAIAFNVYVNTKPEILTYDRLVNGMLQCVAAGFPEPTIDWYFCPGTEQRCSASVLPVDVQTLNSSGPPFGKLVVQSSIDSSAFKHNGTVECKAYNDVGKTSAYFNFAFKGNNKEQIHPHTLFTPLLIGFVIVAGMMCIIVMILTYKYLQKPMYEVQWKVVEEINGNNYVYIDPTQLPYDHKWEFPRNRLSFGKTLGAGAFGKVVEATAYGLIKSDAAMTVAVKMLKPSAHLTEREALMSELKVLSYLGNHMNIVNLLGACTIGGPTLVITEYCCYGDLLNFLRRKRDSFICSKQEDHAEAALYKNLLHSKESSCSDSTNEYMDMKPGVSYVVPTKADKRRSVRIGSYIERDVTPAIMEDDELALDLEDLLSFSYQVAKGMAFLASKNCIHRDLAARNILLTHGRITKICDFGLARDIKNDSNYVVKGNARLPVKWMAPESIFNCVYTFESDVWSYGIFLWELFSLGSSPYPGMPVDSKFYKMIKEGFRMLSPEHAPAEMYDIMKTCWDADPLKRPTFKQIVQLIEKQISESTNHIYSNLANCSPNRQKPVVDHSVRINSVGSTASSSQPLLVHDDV
Chain of UniProt Q04912 (whole entry, looked up): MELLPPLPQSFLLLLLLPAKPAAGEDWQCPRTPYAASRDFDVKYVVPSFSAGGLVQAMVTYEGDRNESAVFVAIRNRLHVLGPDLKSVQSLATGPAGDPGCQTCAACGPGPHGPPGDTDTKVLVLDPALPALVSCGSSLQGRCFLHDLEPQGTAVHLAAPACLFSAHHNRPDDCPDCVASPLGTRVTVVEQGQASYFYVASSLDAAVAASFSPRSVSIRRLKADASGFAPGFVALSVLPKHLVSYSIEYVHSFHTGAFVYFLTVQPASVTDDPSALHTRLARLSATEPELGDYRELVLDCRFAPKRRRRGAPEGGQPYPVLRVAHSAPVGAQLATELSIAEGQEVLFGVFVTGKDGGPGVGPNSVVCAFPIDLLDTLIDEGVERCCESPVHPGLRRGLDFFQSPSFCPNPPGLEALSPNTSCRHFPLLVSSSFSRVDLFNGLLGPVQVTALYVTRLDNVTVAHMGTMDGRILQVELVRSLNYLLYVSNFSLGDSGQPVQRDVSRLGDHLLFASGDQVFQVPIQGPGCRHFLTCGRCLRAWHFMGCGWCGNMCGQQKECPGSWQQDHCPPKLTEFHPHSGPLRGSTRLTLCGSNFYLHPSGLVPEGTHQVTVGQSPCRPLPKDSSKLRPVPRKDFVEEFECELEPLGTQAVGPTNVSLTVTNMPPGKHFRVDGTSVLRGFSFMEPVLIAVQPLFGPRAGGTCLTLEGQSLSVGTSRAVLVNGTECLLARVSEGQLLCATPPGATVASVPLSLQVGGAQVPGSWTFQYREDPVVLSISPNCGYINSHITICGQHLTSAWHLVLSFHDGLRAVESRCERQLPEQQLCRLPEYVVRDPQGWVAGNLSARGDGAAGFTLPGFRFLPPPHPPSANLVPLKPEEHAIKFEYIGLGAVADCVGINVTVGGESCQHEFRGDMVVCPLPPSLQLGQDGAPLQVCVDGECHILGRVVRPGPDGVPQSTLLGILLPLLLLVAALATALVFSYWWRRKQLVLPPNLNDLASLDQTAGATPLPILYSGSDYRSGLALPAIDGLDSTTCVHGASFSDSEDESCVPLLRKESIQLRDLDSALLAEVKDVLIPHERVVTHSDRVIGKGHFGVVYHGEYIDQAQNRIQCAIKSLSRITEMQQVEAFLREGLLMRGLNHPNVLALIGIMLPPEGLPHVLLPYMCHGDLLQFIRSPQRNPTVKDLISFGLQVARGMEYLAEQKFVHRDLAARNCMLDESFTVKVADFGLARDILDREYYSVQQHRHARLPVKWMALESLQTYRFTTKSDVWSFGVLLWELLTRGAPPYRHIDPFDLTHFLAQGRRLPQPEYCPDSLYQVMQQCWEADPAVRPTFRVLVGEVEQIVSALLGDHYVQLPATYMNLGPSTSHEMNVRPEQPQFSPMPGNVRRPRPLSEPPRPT
Chain of UniProt Q00535 (whole entry, looked up): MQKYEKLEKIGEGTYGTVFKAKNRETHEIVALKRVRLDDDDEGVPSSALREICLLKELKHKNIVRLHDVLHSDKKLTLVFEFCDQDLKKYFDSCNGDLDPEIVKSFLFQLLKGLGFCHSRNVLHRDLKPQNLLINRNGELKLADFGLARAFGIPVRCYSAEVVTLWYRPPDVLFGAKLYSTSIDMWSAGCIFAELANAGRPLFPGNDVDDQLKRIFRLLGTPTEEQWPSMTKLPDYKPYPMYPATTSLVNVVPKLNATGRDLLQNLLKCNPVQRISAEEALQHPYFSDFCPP
Chain of UniProt P61075 (whole entry, looked up): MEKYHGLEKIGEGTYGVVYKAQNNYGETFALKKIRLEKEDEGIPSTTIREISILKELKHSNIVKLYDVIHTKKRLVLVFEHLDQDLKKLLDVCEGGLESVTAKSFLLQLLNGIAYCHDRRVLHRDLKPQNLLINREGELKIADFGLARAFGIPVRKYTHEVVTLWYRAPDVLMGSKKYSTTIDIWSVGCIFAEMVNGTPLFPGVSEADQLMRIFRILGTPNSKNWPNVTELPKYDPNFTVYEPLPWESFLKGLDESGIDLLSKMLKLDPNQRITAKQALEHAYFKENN

SMILES	tested on	assay	system	setting	measurement	value
CC[C@H](C)[C@H](NC(=O)[C@H](CCC(N)=O)NC(=O)[C@H](CC(C)C)NC(=O)[C@H](CCSC)NC(=O)[C@H](CCCCN)NC(=O)[C@H](CO)NC(=O)[C@H](CO)NC(=O)[C@H](CCSC)NC(=O)[C@H](CC(C)C)NC(=O)[C@H](CC(N)=O)NC(=O)[C@@H](NC(=O)[C@@H](NC(=O)[C@H](CO)NC(=O)[C@H](CC(C)C)NC(=O)[C@H](CS)NC(=O)[C@H](CCCNC(=N)N)NC(=O)[C@H](CC(=O)O)NC(=O)[C@H](Cc1c[nH]c2ccccc12)NC(=O)[C@H](Cc1ccccc1)NC(=O)[C@H](C)NC(=O)[C@H](CCC(=O)O)NC(=O)[C@@H](N)CCCCN)C(C)C)[C@@H](C)CC)C(=O)N[C@@H](CC(N)=O)C(=O)N[C@@H](C)C(=O)O	Cyclin-dependent kinase 5, with p35 (CDK5, Homo sapiens, UniProt Q00535)	enzyme activity, inhibitor, radiometric	–	100 µM, 20 min	remaining activity	71%
Nc1ccn([C@@H]2O[C@H](CO)[C@@H](O)C2(F)F)c(=O)n1	HEK293	cell growth or viability, MTT	–	0.078125 µg/mL, 48 h	viability	93.3%
CC[C@H](C)[C@H](NC(=O)[C@H](CCC(N)=O)NC(=O)[C@H](CCCNC(=N)N)NC(=O)[C@H](CO)NC(=O)[C@H](Cc1c[nH]cn1)NC(=O)[C@@H]1CCCN1C(=O)[C@H](C)NC(=O)[C@H](CO)NC(=O)[C@H](CC(C)C)NC(=O)CNC(=O)[C@@H]1CCCN1C(=O)[C@H](CCC(N)=O)NC(=O)[C@H](CCC(N)=O)NC(=O)[C@H](CCCNC(=N)N)NC(=O)[C@H](CO)NC(=O)CNC(=O)[C@H](CO)NC(=O)[C@H](CO)NC(=O)[C@H](CCC(=O)O)NC(=O)[C@@H]1CCCN1C(=O)[C@@H]1CCCN1C(=O)[C@@H]1CCCN1C(=O)[C@H](CO)NC(=O)[C@H](CC(C)C)NC(=O)[C@H](CO)NC(=O)[C@@H](NC(=O)CN)[C@@H](C)O)C(=O)N1CCC[C@H]1C(=O)N[C@@H](C)C(=O)N1CCC[C@H]1C(=O)N[C@@H](CCC(N)=O)C(=O)NCC(=O)N[C@@H](C)C(=O)N[C@H](C(=O)N[C@@H](CC(C)C)C(=O)N[C@H](C(=O)N[C@@H](CCC(N)=O)C(=O)N[C@@H](CCCNC(=N)N)C(=O)N[C@@H](CCC(=O)O)C(=O)N[C@@H](CCCCN)C(=O)N[C@@H](CC(=O)O)C(=O)N[C@@H](CC(C)C)C(=O)N1CCC[C@H]1C(=O)N[C@@H](CC(N)=O)C(=O)N[C@@H](Cc1ccc(O)cc1)C(=O)N[C@@H](CC(N)=O)C(=O)N[C@@H](Cc1c[nH]c2ccccc12)C(=O)N[C@@H](CC(N)=O)C(=O)N[C@@H](CO)C(=O)N[C@@H](Cc1ccccc1)C(=O)NCC(=O)N[C@@H](CC(C)C)C(=O)N[C@@H](CCCNC(=N)N)C(=O)N[C@@H](Cc1ccccc1)C(N)=O)C(C)C)C(C)C	KiSS-1 receptor (KISS1R, Homo sapiens, UniProt Q969F8, Y313A)	inositol phosphate, agonist	HEK293	–	Emax	51.6%
CC(C)=CCC/C(C)=C/CC/C(C)=C/CC/C(C)=C/CC/C(C)=C/CC/C(C)=C/CC/C(C)=C/CC/C(C)=C/CC/C(C)=C/CO	CTSL	enzyme activity, inhibitor	–	100 µM	remaining activity	137%
C=CC(=O)N1CCC(COCC(=O)N2CCN(c3nc(-c4cnc(N)nc4C(F)F)nc(N4CCOC[C@@H]4C)n3)CC2)CC1	KIT (Homo sapiens, UniProt P10721, A829P)	binding, competition with immobilised ligand	–	1 µM	remaining binding	63%
CC1CCCN1c1nccc(-c2cnn3ncccc23)n1 (stereo not drawn)	CRK2 (Plasmodium falciparum, UniProt P61075)	cell-free assay	–	1 µM	remaining signal	100%
CC(=O)NC(C=O)C(O)C(O)C(O)CO (stereo not drawn)	CTSL	enzyme activity, inhibitor	–	100 µM	remaining activity	60.1%
CN(O)N=Nc1ccc(S(=O)(=O)Nc2nccs2)cc1	–	ABTS scavenging	–	180 µg/mL	inhibition	84.6%
CC(=O)OC[C@H](Cc1ccccc1)NC(=O)[C@H](Cc1ccccc1)NC(=O)c1ccccc1	CTSL	enzyme activity, inhibitor	–	100 µM	remaining activity	89%
CCN(O)N=Nc1ccc(S(=O)(=O)Nc2cc(C)on2)cc1	–	ABTS scavenging	–	120 µg/mL	inhibition	21.2%
C1=C/COCc2cc(ccc2OCCN2CCCC2)Nc2nccc(n2)-c2cccc(c2)COC/1	ABL1 (Homo sapiens, UniProt P00519, M351T)	binding	–	0.1 µM	remaining binding	19%
O=C1CC[C@H](N2Cc3cc(N4CCN(CC5CCN(c6ccc([C@@H]7c8ccc(O)cc8CC[C@@H]7c7ccccc7)cc6)CC5)CC4)ccc3C2=O)C(=O)N1	–	–	male Sprague-Dawley rat, plasma	intravenous, 5 mg/kg, fed	AUC(0-inf)	5760 ng·h/mL
Nc1ncnc2occ(-c3ccc(NC(=O)Nc4cc(C(F)(F)F)ccc4F)cc3)c12	EGFR (Homo sapiens, UniProt P00533, L861Q)	cell-free assay	–	20 µM	remaining signal	24%
CC[C@H](C)[C@H](NC(=O)[C@H](CCC(N)=O)NC(=O)[C@@H](NC(=O)[C@H](CCSC)NC(=O)[C@H](CCCCN)NC(=O)[C@H](CO)NC(=O)[C@@H](NC(=O)[C@H](CCSC)NC(=O)[C@H](CC(C)C)NC(=O)[C@H](CC(N)=O)NC(=O)[C@@H](NC(=O)[C@@H](NC(=O)[C@H](CO)NC(=O)[C@H](CC(C)C)NC(=O)[C@H](C)NC(=O)[C@H](CCCNC(=N)N)NC(=O)[C@H](CCC(=O)O)NC(=O)[C@H](Cc1ccc(O)cc1)NC(=O)[C@H](Cc1ccccc1)NC(=O)[C@H](C)NC(=O)[C@H](CC(N)=O)NC(=O)[C@@H](N)CCCCN)[C@@H](C)CC)[C@@H](C)CC)[C@@H](C)O)C(C)C)C(=O)N[C@@H](CC(N)=O)C(=O)N[C@H](C(=O)O)C(C)C	GSK3B (Homo sapiens, UniProt P49841)	enzyme activity, inhibitor, radiometric	–	100 µM, 20 min	remaining activity	115%
CCCCC(=O)Nc1ccc(-c2ccc3ncn(CCC)c(=O)c3c2)cn1	MAP3K14 (Homo sapiens, UniProt Q99558)	binding, competition with immobilised ligand	–	0.5 µM	remaining binding	100%
Cc1cc2c(cc1N1C(=O)c3cccc4c(Cl)ccc(c34)C1=O)n(C)c(=O)n2C	Bromodomain-containing protein 3, BD1 (BRD3, Homo sapiens, UniProt Q15059)	thermal stability, DSF	–	10 µM	ΔTm	-0.3 °C
COc1cc(-c2cncc3c2CN(C)Cc2cc(N4CCNCC4)ccc2-3)cc(OC)c1OC	IRAK4 (Homo sapiens, UniProt Q9NWZ3)	enzyme activity, inhibitor	–	1 µM	remaining activity	97%
COc1ccccc1/C=C/C=O	CTSL	enzyme activity, inhibitor	–	100 µM	remaining activity	113%
Cc1[nH]c(C)c(S(=O)(=O)Nc2cc(Cl)c(C(F)(F)F)c(Cl)c2)c1C(=O)N1CCC(F)(F)C1	DRD3	β-arrestin recruitment, agonist	–	90 min	Emax	95%
CNc1ncc2c(/C=C/C(=O)N3CCC(OC)CC3)nn(Cc3cccc(C(F)(F)F)c3)c2n1	MST1R (Homo sapiens, UniProt Q04912)	enzyme activity, inhibitor, radiometric	–	1 µM	remaining activity	94%
CC1OC(OC2C(CO)OC(OCC3OC(OC(=O)C45CCC(C)(C)CC4C4=CCC6C7(C)CCC(OC8OCC(O)C(O)C8OC8OC(C)C(O)C(O)C8O)C(C)(CO)C7CCC6(C)C4(C)CC5)C(O)C(O)C3O)C(O)C2O)C(O)C(O)C1O (stereo not drawn)	CTSL	enzyme activity, inhibitor	–	100 µM	remaining activity	164%
Cc1[nH]c(C)c(S(=O)(=O)Nc2cc(Cl)c(C(F)(F)F)cc2Br)c1C(=O)N1CCC(F)(F)C1	DRD3	β-arrestin recruitment, agonist	–	90 min	Emax	94%
CC(=O)Nc1ccc(S(=O)(=O)N2CCN(CC(O)COc3ccc4ccccc4c3)CC2)cc1 (stereo not drawn)	Fibroblast growth factor 14 (Homo sapiens, UniProt Q92915)	binding, SPR	–	–	koff	0.0191 s⁻¹
O=c1cc(-c2ccc(O)c(-c3c(O)cc(O)c4c(=O)cc(-c5ccc(O)cc5)oc34)c2)oc2cc(O)cc(O)c12	CTSL	enzyme activity, inhibitor	–	100 µM	remaining activity	102%
CC(=NNC(=S)Nc1ccccc1)c1ccc(Nc2nnc(-c3ccc(Cl)cc3)c3ccccc23)cc1	MCF7	cell growth or viability, MTT	–	2.5 µM, 24 h	viability	12.2%
COc1cc(O)cc(O)c1C(=O)/C=C/c1ccccc1	CTSL	enzyme activity, inhibitor	–	100 µM	remaining activity	8.82%
Cc1cc([C@@H](C)Nc2ccccc2C(=O)O)c2nc(N3CCC(F)(F)CC3)c(C#N)c(=O)n2c1	PAK1 (Homo sapiens, UniProt Q13153)	binding, competition with immobilised ligand	–	1 µM	remaining binding	100%

Excerpt of the above:
SMILES	tested on	assay	system	setting	measurement	value
CC[C@H](C)[C@H](NC(=O)[C@H](CCC(N)=O)NC(=O)[C@@H](NC(=O)[C@H](CCSC)NC(=O)[C@H](CCCCN)NC(=O)[C@H](CO)NC(=O)[C@@H](NC(=O)[C@H](CCSC)NC(=O)[C@H](CC(C)C)NC(=O)[C@H](CC(N)=O)NC(=O)[C@@H](NC(=O)[C@@H](NC(=O)[C@H](CO)NC(=O)[C@H](CC(C)C)NC(=O)[C@H](C)NC(=O)[C@H](CCCNC(=N)N)NC(=O)[C@H](CCC(=O)O)NC(=O)[C@H](Cc1ccc(O)cc1)NC(=O)[C@H](Cc1ccccc1)NC(=O)[C@H](C)NC(=O)[C@H](CC(N)=O)NC(=O)[C@@H](N)CCCCN)[C@@H](C)CC)[C@@H](C)CC)[C@@H](C)O)C(C)C)C(=O)N[C@@H](CC(N)=O)C(=O)N[C@H](C(=O)O)C(C)C	GSK3B (Homo sapiens, UniProt P49841)	enzyme activity, inhibitor, radiometric	–	100 µM, 20 min	remaining activity	115%
Cc1[nH]c(C)c(S(=O)(=O)Nc2cc(Cl)c(C(F)(F)F)cc2Br)c1C(=O)N1CCC(F)(F)C1	DRD3	β-arrestin recruitment, agonist	–	90 min	Emax	94%
